Published values from different studies.
Every numbered part comes from another study and shows a few of its results, in no order.
Sequence of UniProt Q96J92 (whole entry, looked up): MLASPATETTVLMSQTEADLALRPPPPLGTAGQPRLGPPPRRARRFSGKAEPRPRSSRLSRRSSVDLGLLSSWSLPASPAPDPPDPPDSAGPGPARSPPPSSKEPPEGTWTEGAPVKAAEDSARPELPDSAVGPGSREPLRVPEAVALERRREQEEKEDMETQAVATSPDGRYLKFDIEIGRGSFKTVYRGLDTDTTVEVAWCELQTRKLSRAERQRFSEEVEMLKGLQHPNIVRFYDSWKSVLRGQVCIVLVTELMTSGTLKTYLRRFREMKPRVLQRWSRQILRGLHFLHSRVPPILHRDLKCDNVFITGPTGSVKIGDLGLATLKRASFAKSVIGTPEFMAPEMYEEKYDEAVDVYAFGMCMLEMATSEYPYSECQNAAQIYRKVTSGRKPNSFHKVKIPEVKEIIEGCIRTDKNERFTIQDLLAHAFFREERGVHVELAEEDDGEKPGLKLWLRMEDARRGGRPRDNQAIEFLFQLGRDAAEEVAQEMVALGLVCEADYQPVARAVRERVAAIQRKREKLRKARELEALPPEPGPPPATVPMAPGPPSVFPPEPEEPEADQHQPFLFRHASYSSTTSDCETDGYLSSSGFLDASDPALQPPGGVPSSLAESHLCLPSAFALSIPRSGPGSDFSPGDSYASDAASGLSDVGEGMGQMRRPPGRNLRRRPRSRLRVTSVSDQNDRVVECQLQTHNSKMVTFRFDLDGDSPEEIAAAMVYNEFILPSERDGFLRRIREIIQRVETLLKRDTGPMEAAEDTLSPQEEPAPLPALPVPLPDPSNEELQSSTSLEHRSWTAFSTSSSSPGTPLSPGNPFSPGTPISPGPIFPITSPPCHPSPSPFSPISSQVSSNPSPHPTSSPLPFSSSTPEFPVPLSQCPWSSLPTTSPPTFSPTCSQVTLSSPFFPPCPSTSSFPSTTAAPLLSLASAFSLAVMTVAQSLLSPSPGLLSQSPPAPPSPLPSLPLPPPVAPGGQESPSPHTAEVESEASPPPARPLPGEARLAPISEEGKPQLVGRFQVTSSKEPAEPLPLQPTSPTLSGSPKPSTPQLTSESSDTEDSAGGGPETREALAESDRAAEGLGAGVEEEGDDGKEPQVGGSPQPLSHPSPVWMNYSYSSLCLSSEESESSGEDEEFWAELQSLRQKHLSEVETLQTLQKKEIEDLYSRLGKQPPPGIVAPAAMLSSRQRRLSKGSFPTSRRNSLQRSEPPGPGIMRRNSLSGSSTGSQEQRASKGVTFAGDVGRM
Sequence of UniProt P53350 (whole entry, looked up): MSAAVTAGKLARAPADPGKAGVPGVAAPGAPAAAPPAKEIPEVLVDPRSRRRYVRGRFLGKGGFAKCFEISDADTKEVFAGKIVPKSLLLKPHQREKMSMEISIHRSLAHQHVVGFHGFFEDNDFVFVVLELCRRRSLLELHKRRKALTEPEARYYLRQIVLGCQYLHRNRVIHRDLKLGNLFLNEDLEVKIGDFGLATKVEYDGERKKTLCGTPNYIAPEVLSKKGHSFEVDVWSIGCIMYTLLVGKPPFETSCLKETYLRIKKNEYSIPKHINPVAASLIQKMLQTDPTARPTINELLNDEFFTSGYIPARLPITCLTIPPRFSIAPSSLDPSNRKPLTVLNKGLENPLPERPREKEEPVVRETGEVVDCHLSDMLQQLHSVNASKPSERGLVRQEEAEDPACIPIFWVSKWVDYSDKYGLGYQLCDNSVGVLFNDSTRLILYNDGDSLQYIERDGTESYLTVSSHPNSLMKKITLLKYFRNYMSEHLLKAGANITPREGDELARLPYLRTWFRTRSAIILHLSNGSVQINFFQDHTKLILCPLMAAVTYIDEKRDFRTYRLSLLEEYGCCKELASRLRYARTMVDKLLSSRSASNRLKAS
Sequence of UniProt Q9BYP7 (whole entry, looked up): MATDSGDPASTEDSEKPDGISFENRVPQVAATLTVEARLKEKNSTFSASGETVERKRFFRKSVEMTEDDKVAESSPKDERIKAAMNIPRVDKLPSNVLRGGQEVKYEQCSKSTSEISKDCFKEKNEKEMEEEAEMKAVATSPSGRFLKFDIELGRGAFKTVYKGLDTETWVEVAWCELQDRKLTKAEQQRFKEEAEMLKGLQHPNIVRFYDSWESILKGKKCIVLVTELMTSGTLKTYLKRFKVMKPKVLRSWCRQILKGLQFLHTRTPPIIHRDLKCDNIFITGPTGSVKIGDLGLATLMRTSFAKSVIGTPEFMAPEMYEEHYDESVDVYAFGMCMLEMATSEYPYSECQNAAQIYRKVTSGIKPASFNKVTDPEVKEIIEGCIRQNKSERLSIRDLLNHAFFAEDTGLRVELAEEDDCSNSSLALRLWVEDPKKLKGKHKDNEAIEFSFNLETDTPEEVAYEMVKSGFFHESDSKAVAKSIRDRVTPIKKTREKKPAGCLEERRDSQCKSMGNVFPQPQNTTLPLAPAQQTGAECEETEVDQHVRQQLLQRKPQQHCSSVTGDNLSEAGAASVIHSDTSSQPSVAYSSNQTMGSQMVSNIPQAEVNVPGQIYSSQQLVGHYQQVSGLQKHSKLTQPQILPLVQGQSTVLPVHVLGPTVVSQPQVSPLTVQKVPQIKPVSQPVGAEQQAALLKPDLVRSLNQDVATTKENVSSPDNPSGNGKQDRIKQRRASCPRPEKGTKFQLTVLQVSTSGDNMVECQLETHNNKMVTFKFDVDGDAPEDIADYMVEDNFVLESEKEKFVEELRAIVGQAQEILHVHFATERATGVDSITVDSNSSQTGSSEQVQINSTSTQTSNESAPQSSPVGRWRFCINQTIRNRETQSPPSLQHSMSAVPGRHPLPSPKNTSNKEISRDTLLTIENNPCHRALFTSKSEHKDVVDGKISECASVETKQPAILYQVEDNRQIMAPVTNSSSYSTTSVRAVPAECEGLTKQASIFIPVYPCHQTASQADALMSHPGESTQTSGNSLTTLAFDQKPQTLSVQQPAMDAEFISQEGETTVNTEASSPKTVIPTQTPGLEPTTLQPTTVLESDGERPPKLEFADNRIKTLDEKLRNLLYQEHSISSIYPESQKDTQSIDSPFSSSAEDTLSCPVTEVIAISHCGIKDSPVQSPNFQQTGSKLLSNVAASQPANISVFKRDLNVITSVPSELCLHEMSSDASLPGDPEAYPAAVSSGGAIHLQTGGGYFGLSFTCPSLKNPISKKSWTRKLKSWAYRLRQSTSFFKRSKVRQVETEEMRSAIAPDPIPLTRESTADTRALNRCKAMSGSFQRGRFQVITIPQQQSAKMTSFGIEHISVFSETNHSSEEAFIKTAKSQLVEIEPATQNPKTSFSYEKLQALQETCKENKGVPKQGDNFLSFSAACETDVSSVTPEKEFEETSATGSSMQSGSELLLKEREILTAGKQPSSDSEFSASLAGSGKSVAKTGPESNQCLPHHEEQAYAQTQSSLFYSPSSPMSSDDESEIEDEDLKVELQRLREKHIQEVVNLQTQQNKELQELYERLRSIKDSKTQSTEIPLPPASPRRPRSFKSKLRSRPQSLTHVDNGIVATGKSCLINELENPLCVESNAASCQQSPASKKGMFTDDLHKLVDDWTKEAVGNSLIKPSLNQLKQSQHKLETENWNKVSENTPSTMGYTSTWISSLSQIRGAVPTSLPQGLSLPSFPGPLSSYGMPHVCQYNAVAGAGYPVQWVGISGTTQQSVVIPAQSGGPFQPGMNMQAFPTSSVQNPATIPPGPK

Set 1
SMILES: Cc1ccc(-c2cnc([C@@]3(O)CC[C@H](C(=O)O)C(C)(C)C3)s2)cc1Nc1cccc(C(F)(F)F)n1
Read-out: binding
Technique: competition with immobilised ligand
Tested at: 1 µM
The remaining binding was 0% (Serine/threonine-protein kinase WNK3 (WNK3, Homo sapiens, UniProt Q9BYP7)).
The remaining binding was 31.8% (Serine/threonine-protein kinase WNK4 (WNK4, Homo sapiens, UniProt Q96J92)).
For Serine/threonine-protein kinase PLK1 (PLK1, Homo sapiens, UniProt P53350): remaining binding read 20.3%.

Set 2
Technique: PRP chromatography
Setting: linear fit, 1 mL
The logD 1,9-decadiene/water of `CC(C)C[C@@H]1NC(=O)[C@H](CCC(=O)N2CCCC2)NC(=O)[C@H](CC(C)C)NC(=O)[C@@H](Cc2cscn2)NC(=O)[C@H](CC(C)C)NC(=O)[C@@H](CC(C)C)NC(=O)[C@H](CC(C)C)NC1=O` is reported as -0.0786 log units.
With `CC(C)C[C@@H]1NC(=O)[C@H](Cc2cscn2)NC(=O)[C@H](C)NC(=O)[C@H](C)NC(=O)[C@@H](CCC(=O)N2CCCC2)NC(=O)[C@H](CC(C)C)NC(=O)[C@@H](CC(C)C)NC1=O` the logD 1,9-decadiene/water was -4.38 log units.
`CC(C)C[C@@H]1NC(=O)[C@H](CC(C)C)NC(=O)[C@@H](C(C)C)NC(=O)[C@H](C(C)C)NC(=O)[C@H](C(C)C)NC(=O)[C@H](Cc2cscn2)NC(=O)[C@H](C)NC1=O` gave a logD 1,9-decadiene/water of -0.768 log units.
`CC(C)C[C@@H]1NC(=O)[C@@H](C)NC(=O)[C@H](CCC(=O)N2CCCC2)NC(=O)[C@@H](C(C)C)NC(=O)[C@H](C(C)C)NC(=O)[C@H](CC(C)C)NC(=O)[C@@H](CC(C)C)NC1=O` gave a logD 1,9-decadiene/water of -0.358 log units.
`CC(C)C[C@@H]1NC(=O)[C@H](C)NC(=O)[C@H](CCC(=O)N2CCCC2)NC(=O)[C@H](CC(C)C)NC(=O)[C@@H](Cc2cscn2)NC(=O)[C@H](CC(C)C)NC(=O)[C@@H](CC(C)C)NC1=O` has a logD 1,9-decadiene/water of 0.153 log units.
The logD 1,9-decadiene/water of `CC(C)C[C@@H]1NC(=O)[C@H](C)NC(=O)[C@@H](CC(C)C)NC(=O)[C@H](C)NC(=O)[C@H](C)NC(=O)[C@H](CC(C)C)NC(=O)[C@@H](CC(C)C)NC1=O` is reported as -1.67 log units.

Set 3
Target: Calcium/calmodulin-dependent protein kinase type 1G (CAMK1G, Homo sapiens, UniProt Q96NX5)
Sequence of UniProt Q96NX5 (whole entry, looked up): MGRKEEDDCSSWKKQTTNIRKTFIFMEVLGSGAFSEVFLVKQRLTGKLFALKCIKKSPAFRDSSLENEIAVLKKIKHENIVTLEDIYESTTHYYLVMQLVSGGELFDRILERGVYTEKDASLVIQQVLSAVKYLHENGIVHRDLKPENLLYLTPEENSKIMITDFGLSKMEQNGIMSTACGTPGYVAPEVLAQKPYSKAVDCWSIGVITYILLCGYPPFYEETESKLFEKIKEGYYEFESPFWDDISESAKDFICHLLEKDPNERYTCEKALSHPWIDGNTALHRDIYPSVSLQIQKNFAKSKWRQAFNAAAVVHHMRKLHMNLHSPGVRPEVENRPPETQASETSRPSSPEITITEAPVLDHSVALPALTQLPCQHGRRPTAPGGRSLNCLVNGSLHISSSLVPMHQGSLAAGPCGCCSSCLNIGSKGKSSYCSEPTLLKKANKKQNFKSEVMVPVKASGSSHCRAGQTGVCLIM
Read-out: enzyme activity
Mode: inhibitor
Tested at: 0.5 µM
Relative to: control
`O=C1Cc2c([nH]c3ccc(Br)cc23)-c2ccccc2N1` has a remaining activity of 97.4%.
`O=C1Nc2ccc(Br)cc2/C1=C/c1cc2c([nH]1)CCCC2` gave a remaining activity of 103%.
`COc1cc2c(N3CCN(C(=O)Nc4ccc(OC(C)C)cc4)CC3)ncnc2cc1OCCCN1CCCCC1` gave a remaining activity of 94.6%.
For `COc1cccc(-c2cc(=O)c3ccccc3o2)c1N`, the remaining activity was 96.5%.
`O=C1NC(=O)/C(=C/c2ccc3c(c2)OC(F)(F)O3)S1` gave a remaining activity of 107%.
With `CNc1cc2c(Nc3cccc(Br)c3)ncnc2cn1` the remaining activity was 97.9%.
With `FC(F)(F)c1ccc(/C=C/c2nc(COc3ccc(CCCCn4ccnn4)cc3)co2)cc1` the remaining activity was 95%.
For `NC(=O)c1ccc(-c2nc(-c3ccc4c(c3)OCCO4)c(-c3ccccn3)[nH]2)cc1`, the remaining activity was 96.6%.
The remaining activity of `O=c1cc(N2CCOCC2)oc2c(-c3ccccc3)cccc12` is reported as 93.8%.
With `O=C1NC(=O)c2c1c1c3ccccc3[nH]c1n1cncc21` the remaining activity was 94.7%.
`N#CC(c1ccnc(NCCc2cccnc2)n1)c1nc2ccccc2s1` (stereo not drawn) gave a remaining activity of 92.3%.
The remaining activity of `Cc1ccc(S(=O)(=O)/C=C/C#N)cc1` is reported as 99.9%.
`NC(=O)c1cccc(-c2cc(Nc3ccc(OC(F)(F)F)cc3)ncn2)c1` gave a remaining activity of 98.1%.
`CCCCc1c(-c2ccc(O)cc2)[nH]c2nccnc12` has a remaining activity of 104%.
With `Nc1nc(Nc2ccc(S(N)(=O)=O)cc2)nn1C(=S)Nc1c(F)cccc1F` the remaining activity was 95.9%.
`N#Cc1cnc2cnc(NCc3cccnc3)cc2c1Nc1ccc(F)c(Cl)c1` has a remaining activity of 96.1%.
With `O=C(c1ccccc1)c1ccc(N2CCOCC2)cc1O` the remaining activity was 96.1%.
`O=C(c1cc2cc(O)ccc2[nH]1)c1cc2cc(O)ccc2[nH]1` has a remaining activity of 101%.
For `COc1ccc(COc2ccc(Cc3cnc(N)nc3N)cc2OC)cc1`, the remaining activity was 98.3%.
`O=Nc1c(-c2c(O)[nH]c3cc(Br)ccc23)[nH]c2ccccc12` has a remaining activity of 96%.
The remaining activity of `O=Nc1c(-c2c(O)[nH]c3ccccc23)[nH]c2ccccc12` is reported as 101%.
`COc1ccc2c(c1)c(C1=C(c3c[nH]c4ccccc34)C(=O)NC1=O)cn2CCCN(C)C` gave a remaining activity of 95%.
For `Oc1cccc(-c2nc(N3CCOCC3)c3oc4ncccc4c3n2)c1`, the remaining activity was 99.2%.
For `CC(C)N(CCC(=O)c1ccc2ccccc2c1)Cc1ccccc1`, the remaining activity was 95.1%.
For `CN1CCN(c2ccc3nc(-c4c(N)c5c(F)cccc5[nH]c4=O)[nH]c3c2)CC1`, the remaining activity was 100%.

Set 4
Cell line: HaCaT
Tested at: 100 µM
Time: 36 h
The viability of `Cc1nc(C)c(C)nc1C` is reported as 95.2%.
For `CCCSc1nc(N[C@@H]2C[C@H]2c2ccc(F)c(F)c2)c2nnn([C@@H]3C[C@H](OCCO)[C@@H](O)[C@H]3O)c2n1`, the viability was 4.83%.
The viability of `CCOC(=O)CCC(=O)O[C@H]1[C@H](O[C@@H]2[C@@H](C)[C@H](O[C@H]3C[C@@](C)(OC)[C@@H](O)[C@H](C)O3)[C@@H](C)C(=O)O[C@H](CC)[C@@](C)(O)[C@H](O)[C@@H](C)C(=O)[C@H](C)C[C@@]2(C)O)O[C@H](C)C[C@@H]1N(C)C` is reported as 74%.
`NC(=O)N/N=C/c1ccc([N+](=O)[O-])o1` gave a viability of 31.3%.
`NC[C@H]1O[C@H](O[C@H]2[C@H](O)[C@@H](O[C@H]3O[C@H](CO)[C@@H](O)[C@H](N)[C@H]3O)[C@H](N)C[C@@H]2N)[C@H](N)C[C@@H]1O` gave a viability of 99%.
`Cc1onc(-c2ccccc2)c1C(=O)N[C@@H]1C(=O)N2[C@@H]1SC(C)(C)[C@@H]2C(=O)O` has a viability of 96.6%.
The viability of `CCN1CCN(c2cc(-c3ccc(F)cc3)c3c(n2)CCCCCC3)CC1` is reported as 113%.

Set 5
Target: Diamine acetyltransferase 1 (Homo sapiens, UniProt P21673)
Mode: inhibitor
Tested at: 10 µM
Relative to: control
Residues (P21673 1-171): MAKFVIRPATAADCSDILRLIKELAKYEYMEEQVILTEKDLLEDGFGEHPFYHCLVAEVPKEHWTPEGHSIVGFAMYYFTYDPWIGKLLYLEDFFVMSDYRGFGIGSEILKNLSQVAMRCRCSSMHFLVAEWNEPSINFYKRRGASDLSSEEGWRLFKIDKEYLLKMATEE
`NCCc1ccc(O)c(O)c1` gave a remaining activity of 84.8%.
For `C[C@@H]1O[C@@H](O[C@H]2[C@H](OC(=O)[C@]34CCC(C)(C)C[C@H]3C3=CC[C@@H]5[C@@]6(C)C[C@H](O)[C@H](O[C@@H]7O[C@H](CO[C@@H]8O[C@H](CO)[C@@H](O)[C@H](O)[C@H]8O)[C@@H](O)[C@H](O)[C@H]7O)C(CO)(CO)[C@@H]6CC[C@@]5(C)[C@]3(C)C[C@H]4O)OC[C@H](O)[C@@H]2O)[C@H](O)[C@H](O)[C@H]1O[C@@H]1OC[C@@H](O)[C@H](O)[C@H]1O`, the remaining activity was 111%.
For `CC1(C)[C@@H](O[C@@H]2O[C@H](C(=O)O)[C@@H](O)[C@H](O)[C@H]2O[C@@H]2O[C@H](C(=O)O)[C@@H](O)[C@H](O)[C@H]2O)CC[C@]2(C)[C@H]3C(=O)C=C4[C@@H]5C[C@](C)(C(=O)O)CC[C@]5(C)CC[C@@]4(C)[C@]3(C)CC[C@@H]12`, the remaining activity was 78.3%.
`O=c1cc[nH]c(=O)[nH]1` gave a remaining activity of 79.4%.

Set 6
Host: human
Matrix: microsomes or S9
Tested at: 2 µM
Time: 0.5 h
With `CCC(CO)Nc1ncc2cc3ccccc3nc2c1C#N` (stereo not drawn) the remaining compound was 42.9%.
`COC(=O)C1(C)Cc2ccc(Cl)cc2C(=O)O1` (stereo not drawn) has a remaining compound of 0%.
The remaining compound of `COC(=O)c1coc(C(=O)N(C)c2ccc(C)c(N(C)C)c2)c1` is reported as 2.7%.
`Cc1cnn(CCCn2ncc(N(C)C)cc2=O)c1` has a remaining compound of 90.2%.
For `COc1cc2[nH]c3c(=O)n(-c4ccccc4)ncc3c2cc1OC`, the remaining compound was 75.1%.
The remaining compound of `COc1ccc(C(CC(N)=O)c2c(Cc3ccc4c(c3)CCO4)[nH][nH]c2=O)cc1OC` (stereo not drawn) is reported as 33%.

A few entries again (set 3):
`COc1ccc2c(c1)c(C1=C(c3c[nH]c4ccccc34)C(=O)NC1=O)cn2CCCN(C)C` gave a remaining activity of 95%.
For `Oc1cccc(-c2nc(N3CCOCC3)c3oc4ncccc4c3n2)c1`, the remaining activity was 99.2%.
For `CC(C)N(CCC(=O)c1ccc2ccccc2c1)Cc1ccccc1`, the remaining activity was 95.1%.
